Measurements from different studies.
Parts stem from different laboratories: compare values within a part only. Several values in a cell are separate wells, animals, samples, runs or records.
Chain of UniProt P30291 (whole entry, looked up): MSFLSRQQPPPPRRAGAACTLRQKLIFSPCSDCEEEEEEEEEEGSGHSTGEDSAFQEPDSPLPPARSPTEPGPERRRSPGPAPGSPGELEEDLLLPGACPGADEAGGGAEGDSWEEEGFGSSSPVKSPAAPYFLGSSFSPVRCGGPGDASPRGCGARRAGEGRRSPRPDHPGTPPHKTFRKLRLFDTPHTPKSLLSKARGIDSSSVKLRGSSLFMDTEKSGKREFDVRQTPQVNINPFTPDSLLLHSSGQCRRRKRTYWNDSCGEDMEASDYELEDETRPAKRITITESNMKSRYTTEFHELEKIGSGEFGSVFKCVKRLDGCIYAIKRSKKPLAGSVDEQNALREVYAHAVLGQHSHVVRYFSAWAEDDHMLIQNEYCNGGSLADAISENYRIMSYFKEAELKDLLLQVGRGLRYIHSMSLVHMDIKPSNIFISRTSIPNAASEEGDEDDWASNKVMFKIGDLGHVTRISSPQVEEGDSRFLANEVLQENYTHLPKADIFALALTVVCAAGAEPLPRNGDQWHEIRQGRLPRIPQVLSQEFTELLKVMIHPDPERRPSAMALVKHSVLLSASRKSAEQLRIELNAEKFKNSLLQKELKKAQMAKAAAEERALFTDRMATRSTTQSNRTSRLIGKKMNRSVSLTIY
Chain of UniProt Q96RR4 (whole entry, looked up): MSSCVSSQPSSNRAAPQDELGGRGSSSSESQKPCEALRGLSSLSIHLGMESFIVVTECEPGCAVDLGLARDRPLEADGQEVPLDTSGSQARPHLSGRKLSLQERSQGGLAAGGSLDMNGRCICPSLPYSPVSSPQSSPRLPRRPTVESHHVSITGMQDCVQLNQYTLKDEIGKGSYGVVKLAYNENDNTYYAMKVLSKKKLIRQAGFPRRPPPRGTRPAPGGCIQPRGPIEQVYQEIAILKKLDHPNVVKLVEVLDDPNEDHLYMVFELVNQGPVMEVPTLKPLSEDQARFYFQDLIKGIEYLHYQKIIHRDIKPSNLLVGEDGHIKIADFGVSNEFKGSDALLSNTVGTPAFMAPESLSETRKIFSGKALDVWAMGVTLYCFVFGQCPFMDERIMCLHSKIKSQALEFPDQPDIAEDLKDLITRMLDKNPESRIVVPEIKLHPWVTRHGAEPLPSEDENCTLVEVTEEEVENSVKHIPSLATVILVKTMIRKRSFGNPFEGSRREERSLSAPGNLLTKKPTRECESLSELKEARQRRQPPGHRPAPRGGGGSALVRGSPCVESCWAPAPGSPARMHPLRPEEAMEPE
Chain of UniProt P49137 (whole entry, looked up): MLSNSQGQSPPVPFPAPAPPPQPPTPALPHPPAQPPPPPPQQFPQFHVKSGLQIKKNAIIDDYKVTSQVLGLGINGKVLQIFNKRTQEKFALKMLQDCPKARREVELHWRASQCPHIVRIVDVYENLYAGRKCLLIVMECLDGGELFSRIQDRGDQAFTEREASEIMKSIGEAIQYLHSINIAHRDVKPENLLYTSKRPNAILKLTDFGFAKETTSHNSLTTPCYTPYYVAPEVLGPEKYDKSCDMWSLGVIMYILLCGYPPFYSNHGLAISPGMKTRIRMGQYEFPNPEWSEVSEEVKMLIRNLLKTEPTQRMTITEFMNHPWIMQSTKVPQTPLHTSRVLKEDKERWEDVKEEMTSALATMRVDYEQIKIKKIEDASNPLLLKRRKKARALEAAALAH
Chain of UniProt Q9UPZ9 (whole entry, looked up): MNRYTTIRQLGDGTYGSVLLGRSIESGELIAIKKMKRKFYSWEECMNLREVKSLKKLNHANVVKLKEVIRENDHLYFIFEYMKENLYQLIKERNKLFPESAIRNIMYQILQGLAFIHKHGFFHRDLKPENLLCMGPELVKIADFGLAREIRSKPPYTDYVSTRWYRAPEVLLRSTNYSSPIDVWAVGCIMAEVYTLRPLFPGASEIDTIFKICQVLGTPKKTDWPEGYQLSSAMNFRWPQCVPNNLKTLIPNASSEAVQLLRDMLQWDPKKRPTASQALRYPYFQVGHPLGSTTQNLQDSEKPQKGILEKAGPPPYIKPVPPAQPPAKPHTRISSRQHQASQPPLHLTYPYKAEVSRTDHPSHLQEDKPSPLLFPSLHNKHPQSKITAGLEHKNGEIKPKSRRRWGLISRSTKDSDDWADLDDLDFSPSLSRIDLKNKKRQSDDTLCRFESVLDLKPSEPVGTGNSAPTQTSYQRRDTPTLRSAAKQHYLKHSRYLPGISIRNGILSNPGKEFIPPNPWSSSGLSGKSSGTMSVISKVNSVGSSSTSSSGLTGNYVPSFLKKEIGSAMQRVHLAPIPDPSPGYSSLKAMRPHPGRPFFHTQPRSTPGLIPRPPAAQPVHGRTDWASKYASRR
Chain of UniProt O14733 (whole entry, looked up): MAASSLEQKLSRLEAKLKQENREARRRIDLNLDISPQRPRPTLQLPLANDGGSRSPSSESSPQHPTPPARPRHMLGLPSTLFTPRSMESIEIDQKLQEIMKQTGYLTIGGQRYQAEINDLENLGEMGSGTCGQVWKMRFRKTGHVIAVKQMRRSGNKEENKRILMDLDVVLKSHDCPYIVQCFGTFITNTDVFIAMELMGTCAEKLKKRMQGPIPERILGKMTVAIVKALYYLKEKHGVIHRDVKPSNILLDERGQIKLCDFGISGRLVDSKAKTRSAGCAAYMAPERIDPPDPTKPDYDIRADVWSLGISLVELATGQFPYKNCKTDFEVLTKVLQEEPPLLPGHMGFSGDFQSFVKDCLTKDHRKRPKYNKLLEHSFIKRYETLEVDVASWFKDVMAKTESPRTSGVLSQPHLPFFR

Set 1 — observed: enzyme activity; mode: inhibitor; tested at: 0.5 µM; relative to: control
Target: Homeodomain-interacting protein kinase 1 (HIPK1, Homo sapiens, UniProt Q86Z02)
Chain of UniProt Q86Z02 (whole entry, looked up): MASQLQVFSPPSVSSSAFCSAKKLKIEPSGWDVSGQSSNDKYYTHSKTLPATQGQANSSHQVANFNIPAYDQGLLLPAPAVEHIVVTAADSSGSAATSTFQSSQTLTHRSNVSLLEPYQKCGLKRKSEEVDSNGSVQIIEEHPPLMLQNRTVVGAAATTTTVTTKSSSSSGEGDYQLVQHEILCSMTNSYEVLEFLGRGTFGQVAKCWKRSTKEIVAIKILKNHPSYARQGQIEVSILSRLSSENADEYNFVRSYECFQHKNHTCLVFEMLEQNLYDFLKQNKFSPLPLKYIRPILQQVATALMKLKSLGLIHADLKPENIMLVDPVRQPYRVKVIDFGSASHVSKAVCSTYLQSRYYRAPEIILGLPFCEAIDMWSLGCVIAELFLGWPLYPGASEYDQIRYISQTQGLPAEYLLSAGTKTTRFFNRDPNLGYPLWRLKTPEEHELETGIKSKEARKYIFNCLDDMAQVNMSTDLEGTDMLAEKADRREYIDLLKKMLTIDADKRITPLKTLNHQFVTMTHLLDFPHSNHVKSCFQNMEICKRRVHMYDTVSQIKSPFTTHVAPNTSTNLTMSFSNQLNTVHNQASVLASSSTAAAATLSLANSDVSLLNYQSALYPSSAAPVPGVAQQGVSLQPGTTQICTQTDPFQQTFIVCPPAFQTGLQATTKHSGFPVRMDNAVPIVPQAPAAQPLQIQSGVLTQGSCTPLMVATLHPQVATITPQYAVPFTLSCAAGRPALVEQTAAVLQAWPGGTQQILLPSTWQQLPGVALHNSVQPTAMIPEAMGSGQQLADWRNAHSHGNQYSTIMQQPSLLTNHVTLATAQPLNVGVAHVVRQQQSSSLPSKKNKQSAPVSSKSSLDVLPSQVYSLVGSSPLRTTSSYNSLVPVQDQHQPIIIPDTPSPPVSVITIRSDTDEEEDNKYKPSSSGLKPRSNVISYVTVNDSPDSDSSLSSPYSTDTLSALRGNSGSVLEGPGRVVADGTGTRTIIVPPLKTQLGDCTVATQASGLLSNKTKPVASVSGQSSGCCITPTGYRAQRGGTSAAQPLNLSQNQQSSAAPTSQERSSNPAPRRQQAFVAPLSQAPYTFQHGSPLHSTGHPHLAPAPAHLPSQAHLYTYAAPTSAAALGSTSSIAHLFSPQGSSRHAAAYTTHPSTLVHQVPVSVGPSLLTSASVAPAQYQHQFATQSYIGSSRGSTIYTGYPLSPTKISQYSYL
For Cc1ccc(NC(=O)c2ccc(CN3CCN(C)CC3)cc2)cc1Nc1nc(-c2cccnc2)cs1, the remaining activity was 97.4%.
For O=C1NC(=O)C(c2cn(CCCO)c3ncccc23)=C1c1cnccn1, the remaining activity was 84.2%.
CNC(=O)c1cc(Oc2ccc(NC(=O)Nc3ccc(Cl)c(C(F)(F)F)c3)cc2)ccn1 gave a remaining activity of 99.7%.
The remaining activity of OCC(O)CCON=C1C(c2c(O)[nH]c3ccccc23)=Nc2ccccc21 (stereo not drawn) is reported as 96%.
Cn1sc(=O)n(Cc2ccccc2)c1=O gave a remaining activity of 92.3%.
The remaining activity of NCCNc1ncc(C(N)=O)c(Nc2cccc(C(F)(F)F)c2)n1 is reported as 95.9%.
The remaining activity of Cn1c2ccccc2c2c3c(c4c5ccccc5n(CCC#N)c4c21)CNC3=O is reported as 81.1%.
The remaining activity of CO[C@H]1C[C@@H]2CC[C@@H](C)[C@@](O)(O2)C(=O)C(=O)N2CCCC[C@H]2C(=O)O[C@H]([C@H](C)C[C@@H]2CC[C@@H](O)[C@H](OC)C2)CC(=O)[C@H](C)/C=C(\C)[C@@H](O)[C@@H](OC)C(=O)[C@H](C)C[C@H](C)/C=C/C=C/C=C/1C is reported as 99.1%.
With O=C1NC(=O)C(c2cn(CCCn3ccnc3)c3ccccc23)=C1Nc1ccccc1 the remaining activity was 102%.
Cc1ccc(Nc2nccc(N(C)c3ccc4c(C)n(C)nc4c3)n2)cc1S(N)(=O)=O gave a remaining activity of 97.6%.
With COc1ccc(CNC(=O)Nc2ncc([N+](=O)[O-])s2)cc1 the remaining activity was 100%.
CCOC(=O)c1c(C)[nH]c(/C=C2\C(=O)Nc3ccccc32)c1C has a remaining activity of 97.3%.
COc1ccc(C(=O)Nc2sc3c(c2C(N)=O)CCCC3)cc1OC gave a remaining activity of 90.2%.
For Cc1nc(-c2ccccc2)c(-c2ccncc2)o1, the remaining activity was 102%.

Set 2 — observed: cell-free assay; technique: competition with immobilised ligand; tested at: 0.1 µM
SMILES: Nc1c(C(=O)NCc2ccc(C(=O)NCCCC3CCCCC3)cc2)cnn1-c1ccccc1
It gave 73% for remaining binding (FLT3 (Homo sapiens, UniProt P36888, F691L/ITD)).
For STK32A (Homo sapiens, UniProt Q8WU08): remaining binding read 96%.
It gave 100% for remaining binding (ROCK2 (Homo sapiens, UniProt O75116)).
NEK4 (Homo sapiens, UniProt P51957) — remaining binding: 100%.
MAPK1 (Homo sapiens, UniProt P28482) — remaining binding: 100%.
HIPK3 (Homo sapiens, UniProt Q9H422) — remaining binding: 100%.
For CAMK1G (Homo sapiens, UniProt Q96NX5): remaining binding read 100%.
Non-receptor tyrosine-protein kinase TYK2, JH2 (TYK2, Homo sapiens, UniProt P29597) — remaining binding: 88%.
For PRKACA (Homo sapiens, UniProt P17612): remaining binding read 100%.
For CILK1 (Homo sapiens, UniProt Q9UPZ9): remaining binding read 100%.
It gave 100% for remaining binding (WEE1 (Homo sapiens, UniProt P30291)).
For MAP2K7 (Homo sapiens, UniProt O14733): remaining binding read 99%.
The remaining binding was 100% (MAPKAPK2 (Homo sapiens, UniProt P49137)).
For FER (Homo sapiens, UniProt P16591): remaining binding read 90%.
The remaining binding was 94% (PIK3CD (Homo sapiens, UniProt O00329)).
For MELK (Homo sapiens, UniProt Q14680): remaining binding read 92%.
It gave 100% for remaining binding (CAMKK2 (Homo sapiens, UniProt Q96RR4)).
For SRMS (Homo sapiens, UniProt Q9H3Y6): remaining binding read 100%.
The remaining binding was 100% (BRAF (Homo sapiens, UniProt P15056, V600E)).
It gave 100% for remaining binding (Aurora kinase C (AURKC, Homo sapiens, UniProt Q9UQB9)).
For SRPK3 (Homo sapiens, UniProt Q9UPE1): remaining binding read 100%.

Set 3 — organism: Sarcocystis neurona; observed: parasite growth; tested at: 10 µM; time: 96 h; setting: second screen; relative to: untreated
For CCn1cc(C(=O)O)c(=O)c2ccc(C)nc21, “log2 fold change” read 0.36.
O=C1N[C@H](C(=O)O)CS1: “log2 fold change” 0.00169.
C#C[C@]1(OC(C)=O)CC[C@H]2[C@@H]3CCC4=CC(=O)CC[C@@H]4[C@H]3CC[C@@]21C: “log2 fold change” 0.2.
For C[C@H]1C[C@@H]2[C@H]([C@@H](O)C[C@@]3(C)[C@H]2CC[C@]3(O)C(=O)CO)[C@@]2(C)C=CC(=O)C=C12, “log2 fold change” read 0.34.
CN(C)CC/C=C1/c2ccccc2COc2ccc(CC(=O)O)cc21 — result for “log2 fold change”: 0.24.

Single results of other studies
With CC(=O)N[C@@H](Cc1c[nH]c2ccccc12)C(=O)N[C@@H](CCC(=O)C=[N+]=[N-])C(=O)OC(C)C the ribose level was 3.36e+06 a.u. and 2.64e+06 a.u. and 2.6e+06 a.u. and 3.8e+06 a.u. and 2.81e+06 a.u. and 3.04e+06 a.u. (UPLC-MS/MS; EL4 tumor, C57BL/6 CES1-/- mice, tumor; subcutaneous, 0.3 mg/kg DON equivalent daily, 5 days; higher = more metabolite).
For CN(C(=O)c1ccn2ncc(-c3ccc(C(N)=O)cc3)c2c1)c1ccc(C#N)cn1, the oocyst shedding was 4.03 log oocysts/g feces (Cryptosporidium parvum; qPCR; IFN-γ knockout mouse, feces; oral, 10 mg/kg).
